Measurements from different studies.
Lines come from different studies, so protocols differ. Several values in a cell are separate wells, animals, samples, runs or records. ± gives the spread as reported.

CNc1ccc(-c2nc3ccc(O)cc3s2)cc1 [carbon-11 labelled]  SUV (ex vivo biodistribution; B6SJL mouse, normal, bladder; intravenous, 30 min): 5.85 ± 4.37
CC(C)NCC(O)c1ccc(NS(C)(=O)=O)cc1 (racemic)  mean blood pressure (male Hartley guinea pigs, anaesthetized; intravenous, 3 mg/kg group, baseline before infusion): 34 ± 0.2 mmHg
CN(CC#N)C(=O)C[C@H](Nc1nc2ccccc2[nH]1)c1cccc(C(F)(F)F)c1  apparent volume of distribution (human; intravenous infusion, 1 mg/kg, 5 mg/mL formulation): 65.8 ± 16.3 L
CNC(=O)c1ccc(-c2cnc3ncc(Cc4ccc5ncccc5c4)n3n2)cc1F  Pancreatitis patients (Japanese patients; oral, 400 mg twice daily, any grade): 12%
COC(=O)CNC(=O)c1nc(Cl)c2ccccc2c1O  pKa (basic): < 2
CC(C)[C@@H](CS(=O)(=O)C(C)C)N1C(=O)[C@@](C)(CC(=O)O)C[C@H](c2cccc(Cl)c2)[C@H]1c1ccc(Cl)cc1  AUC(0-inf) (FVB mice Abcb1a/b Abcg2 knockout, spinal cord; intravenous, 20 mg/kg): 8590 ± 214 ng·h/mL
Cc1ccc([C@@H]2O[C@H](CO)[C@@H](O)[C@H](O)[C@H]2O)cc1Cc1ccc(-c2ccc(F)cc2)s1  urinary magnesium excretion change (Japanese type 2 diabetes patients; 25 mg, day 5, 24 h urine collection; baseline: baseline): 8.5 mg
N#CCNC(=O)c1ccc(-c2ccnc(Nc3ccc(N4CCOCC4)cc3)n2)cc1  Q/F (population PK model, NONMEM; human, plasma; oral, typical value, final model): 36.1 L/h
CCCCCCOC(=O)NC(=N)c1ccc(NCc2nc3cc(C(=O)N(CCC(=O)OCC)c4ccccn4)ccc3n2C)cc1  participants with TEAE oropharyngeal pain (human; oral, 75 mg, compound alone): 0%
COc1ccc(C[C@@H](C)[C@@H](C)Cc2ccc(OC)c(OC)c2)cc1OC  Cmax (beagle dog female, plasma; oral, 100 mg/kg/day, day 1): 1730 ± 150 ng/mL
O=C(CCCN1CC=C(n2c(=O)[nH]c3ccccc32)CC1)c1ccc(F)cc1  mean blood pressure (male Hartley guinea pigs, anaesthetized; intravenous, 0.3 mg/kg over 10 min, after infusion): 26 ± 0.2 mmHg
C#Cc1cccc(Nc2ncnc3cc(OCCOC)c(OCCOC)cc23)c1  CL/F decrease (UPLC-MS/MS; Wistar rat, male, plasma; oral, four weeks, together with: PPA 1000 mg/kg, high dose; baseline: control): 75%
Cc1ccc(C(=O)N(CCCN)C(c2nc3snc(C)c3c(=O)n2Cc2ccccc2)C(C)C)cc1 (stereo not drawn)  patients with adverse events (measured: Hyperbilirubinemia; human patients; intravenous, 16 mg/day, CTCAE grade ≥3): 0%
Nc1ncnc2c1ncn2[C@@H]1O[C@H](CO)C[C@H]1O  cytotoxicity (LDH release; human ESC-derived lung organoids; concentration not given, 3 days): 18% and 23.4%
Cc1cc(Nc2cc3ncccc3c(N[C@@H]3C[C@H]4CC[C@@H](C3)N4CCC#N)n2)n[nH]1  pruritus incidence (healthy human subjects; oral, 300 mg, 2 weeks, single ascending dose): 0%
CCO[C@H]1CCN(Cc2c(OC)cc(C)c3[nH]ccc23)[C@H](c2ccc(C(=O)O)cc2)C1  incidence of abdominal pain (PNH patients, active haemolysis; oral, 200 mg, 8 weeks, treatment): 0%
O=C(c1cccnc1-c1ccncc1)N1CCC(O)(Cc2ccccc2)CC1  AUClast/dose (healthy Japanese adults, plasma; oral, 600 mg single dose): 6.43 ng·h/mL/mg
O=C(COc1ccc(Cl)cc1)NC12CC(c3nnc([C@H]4C[C@@H](OC(F)(F)F)C4)o3)(C1)C2  treatment-emergent adverse events (at least 1 event; human, both sexes; oral, dose not given, single ascending dose, fasted, all doses; baseline: subjects): 63.9%
COCc1cc(C(=O)Nc2cc([C@H]3CC[C@@H](OC(=O)NC(C)C)C3)[nH]n2)n(C)n1  unbound C24h (OVCAR-3 xenograft, NOD/SCID gamma mice, plasma; oral, 50 twice daily, PK/PD study): 57 nM
CCOc1c([C@H](C)n2nc(C)c3c(N)ncnc32)cc(Cl)c(F)c1[C@@H]1CNC(=O)C1  LSM change in QRS interval (previously treated B-cell malignancy patients; oral, dose not given): ≤ 4.19 ms
COc1ccc([C@@H](O)c2cc(-c3ncnc4cc(N5CCOCC5)ccc34)c(F)cc2Cl)nn1  metabolism nutrition disorder TEAE (locally advanced rectal cancer patients; 100 mg, together with: capecitabine and radiotherapy): 67%
CO[C@H]1C[C@@H]2CC[C@@H](C)[C@@](O)(O2)C(=O)C(=O)N2CCCC[C@H]2C(=O)O[C@H]([C@H](C)C[C@@H]2CC[C@@H](O)[C@H](OC)C2)CC(=O)[C@H](C)/C=C(\C)[C@@H](O)[C@@H](OC)C(=O)[C@H](C)C[C@H](C)/C=C/C=C/C=C/1C  rectal temperature (healthy adult horses; intravenous, 0.06 mg/kg, 6 h): 37.5 ± 0.1 °C
CC1(C)CCC(CN2CCN(c3ccc(C(=O)NS(=O)(=O)c4ccc(NCC5CCOCC5)c([N+](=O)[O-])c4)c(Oc4cnc5[nH]ccc5c4)c3)CC2)=C(c2ccc(Cl)cc2)C1  C0 fold change (patients on VA-based chemotherapy; oral, dose not given, together with: triazole antifungals; baseline: without triazoles): 1
CC(C)C[C@H](NC(=O)CNC(=O)c1cc(Cl)ccc1Cl)B(O)O  treatment-emergent adverse events (measured: Insomnia; human newly diagnosed multiple myeloma; oral, dose not given, maintenance, grade 3, onset cycle 17 or later): 0%
CC(C)(C)c1ccc(C(O)CCCN2CCC(C(O)(c3ccccc3)c3ccccc3)CC2)cc1 (stereo not drawn)  mean blood pressure (male Hartley guinea pigs, anaesthetized; intravenous, 3 mg/kg group, baseline before infusion): 36 ± 0.3 mmHg
CN(C)C(=O)c1ncccc1O  pKa (basic): 2.3
C[C@@H](N)C1CCN(S(=O)(=O)c2cccc3cnccc23)CC1  TEAE incidence (healthy volunteers; dose not given, fasted,, all doses): 37.5%
CC(F)(F)c1cc(F)ccc1-c1sc2cc(O)ccc2c1Oc1ccc(/C=C/C(=O)O)cc1  Tlast (human, serum; oral, 900 mg once daily, cycle 1 day 28, fasted, median): 23.3 h
CNC(=O)c1ccc(-c2cnc3ncc(Cc4ccc5ncccc5c4)n3n2)cc1F  upper abdominal pain incidence (all grades) (CTCAE v4.0, any causality; human gastric cancer patients; oral, 600 mg twice daily, expansion cohort at RP2D): 11%
Cc1ncsc1-c1ccc(CNC(=O)[C@@H]2C[C@@H](O)CN2C(=O)[C@@H](NC(=O)CCCCCCCCCCNC(=O)O[C@H]2C[C@@H](C)C=C3C=C[C@H](C)[C@H](CC[C@@H]4C[C@@H](O)CC(=O)O4)[C@H]32)C(C)(C)C)cc1  elimination rate constant (C57BL/6 mice, plasma; oral, 60 mg/kg): 3.61e-05 ± 2.78e-06 s⁻¹
CC(=O)NCCc1c[nH]c2ccc(O)cc12  specific activity (sulfation, substrate; pooled human liver cytosol; 50 µM, 30 min, together with: 50 mM NaF): 25.4 ± 1.3 pmol/min/mg
O=C(Nc1nc2cccc(-c3ccc(CN4CCS(=O)(=O)CC4)cc3)n2n1)C1CC1  treatment-emergent adverse events (measured: musculoskeletal disorders; human rheumatoid arthritis patients; oral, 300 mg once daily, 4 weeks, regardless of relatedness): 5%
CC(C)=CCC1=C(O)C(=O)c2ccccc2C1=O  Epa1 anodic peak potential (cyclic voltammetry; CH2Cl2, Bu4NPF6; 0.1 mM; baseline: Ag/AgCl sat. KOH): 1.35 V
Cc1c2oc3c(C)ccc(C(=O)N[C@@H]4C(=O)N[C@H](C(C)C)C(=O)N5CCC[C@H]5C(=O)N(C)CC(=O)N(C)[C@@H](C(C)C)C(=O)O[C@@H]4C)c3nc-2c(C(=O)N[C@@H]2C(=O)N[C@H](C(C)C)C(=O)N3CCC[C@H]3C(=O)N(C)CC(=O)N(C)[C@@H](C(C)C)C(=O)O[C@@H]2C)c(N)c1=O  maximum plasma concentration (LC-MS; children with cancer, plasma; dose not given, 24 h): 4.8 µg/L
O=C(O)CSc1nnc(Br)n1-c1ccc(C2CC2)c2ccccc12  body weight (KM mouse, chronic hyperuricaemia model; dose not given, day 26): 38.8 g and 41.8 g and 38.3 g and 37.2 g and 35.1 g and 32.5 g
COC(=O)[C@@H]1[C@H]2C[C@H]3c4[nH]c5ccccc5c4CCN3C[C@@H]2CC[C@@H]1O  concentration (rat, brain; intraperitoneal, 1 mg/kg, 1.5 h): 480 nM
O=C(O)CCC(=O)O.[2H]C([2H])([2H])Oc1cc(C)c2[nH]ccc2c1CN1CC[C@@H](C2CC2)C[C@H]1c1ccc(C(=O)O)cc1  subjects with elevated AST TEAE (multiple ascending dose; healthy Chinese subjects; 100 mg twice daily): 12.5%
CC(C)n1c(Nc2cccnc2)nc2cnc(Nc3ccc(N4CCN(C)CC4)cc3)nc21  adverse event incidence (measured: Rash; healthy male subjects; oral, 150 mg, together with: rifampin): 0%
COc1cc2[nH]c(C)c(-c3c(C)cc(C)cc3C)c(=O)c2cc1Cl  Papp (PAMPA; pH 7.4): 406 ×10⁻⁶ cm/s
CC(C)(C(=O)N1CCOc2c(C#N)cncc2C1)C(F)F  subjects with adverse event (measured: Arthralgia; human; oral, 20 mg twice daily, 14 days, multiple ascending dose): 0%
C=CC(=O)N1CCC[C@@H](n2c(=O)n(-c3ccc(Oc4ccccc4)cc3)c3c(N)nccc32)C1  AUC(0-last) fed/fasted ratio (human; oral, 120 mg; baseline: fed over fasted): 1.54
C[C@H]1O[C@@H](O[C@H]2CC[C@@]3(C)[C@@H](CC[C@]4(C)[C@@H]3C=C[C@]35OC[C@@]6(CCC(C)(C)C[C@H]63)[C@@H](O)C[C@]54C)[C@]2(C)CO)[C@H](O)[C@@H](O[C@@H]2O[C@H](CO)[C@@H](O)[C@H](O)[C@H]2O)[C@H]1O  plasma concentration (UHPLC-MS/MS; mouse, plasma; oral, 50 mg/kg, 8 h, pooled samples): 0 ng/mL
C[Si]1(C)O[Si](C)(C)O[Si](C)(C)O[Si](C)(C)O[Si](C)(C)O1  intercept A, log KAW vs 1/T: 24.9
CCN1/C(=C/C(C)=O)Sc2ccc(F)cc21  diastolic blood pressure change (cynomolgus monkey; oral, 100 mg/kg, 4 h post-dose; baseline: pre-dose): 101 ± 3%
Cc1cc(NC(=O)c2cccc(NC(=O)/C=C/CN(C)C)c2)ccc1Nc1nccc(-c2cccnc2)n1  remaining compound (primary hepatocytes, rat Wistar male; 1 µM, 90 min): 65.8%
CNCCOC12CC3(C)CC(C)(CC(Cn4ncc(-c5ccc(N6CCc7cccc(C(=O)Nc8nc9ccccc9s8)c7C6)nc5C(=O)O)c4C)(C3)C1)C2  QTcV interval change (beagle dog, male, anaesthetised; intravenous bolus, 0.03 mg/kg, 45 min; baseline: baseline): 12 ms
O=C1NCCc2nc(OCc3cccc(F)c3)ccc21  Irwin test score (measured: Ptosis; Sprague-Dawley rat, male; oral, 100 mg/kg, 1 h, score 0 none to 2 full; direction not given): 0
CC(C)c1nc(N(C)S(C)(=O)=O)nc(-c2ccc(F)cc2)c1/C=C/[C@@H](O)C[C@@H](O)CC(=O)O  plasma concentration (Wistar albino rat, both sexes, plasma; oral, 20 mg/kg, 0.5 h): 513 ng/mL
O=[N+]([O-])c1cnc2ccc(Cl)cc2c1O  maximum haemolysis (sheep erythrocytes; 1 h, pH 7.5): 2.4%
Nc1nc2c(nc([N+](=O)[O-])n2[C@@H]2O[C@H](CO)[C@@H](O)[C@H]2O)c(=O)[nH]1  nucleoside remaining fraction (depurination, RP-HPLC; citrate-phosphate buffer 0.5 mM; 240 min, pH 5, 37 °C): 0.779
CCn1c(=O)c(-c2cc(NC(=O)Nc3ccccc3)c(F)cc2Br)cc2cnc(NC)cc21  participants with drug-related TEAE (measured: nervous system disorders; human, severe hepatic impairment; oral, 50 mg single dose): 0%
Cc1ccc(O)c(-n2nc3ccccc3n2)c1  mean daily dermal uptake (exposure assessment; human, age 16-21 years; cream): 240 ng/kg body weight/day
CCOc1ccc2nc(NC(=O)c3ccc4ncsc4c3)sc2c1  maximum haemolysis (sheep erythrocytes; 1 h, pH 7.5): 26.9%
CCC(CC)C(=O)Oc1cccc(C(O)CCN)c1.O=CO (stereo not drawn)  ERG b-wave amplitude (scotopic ERG; BALB/cJ mice; intraperitoneal, 10 mg/kg, 1 h dark adaptation, together with: 10,000 lx photobleach, 10 min): 20 µV and 33 µV and 34 µV and 11 µV and 47 µV
COc1cc2c3c(n(CCCN4CCOCC4)c(=O)c2cc1OC)-c1cc2c(cc1C3=O)OCO2  CL (beagle dog, female, plasma; intravenous infusion, 215 mg/m^2, 1 h infusion): 20.2 L/h/m² and 20.8 L/h/m²
Cc1cc(-c2nccc3c2ccn3CC(=O)Nc2ccc(-c3cnccn3)cn2)ccn1  subjects with eye disorders TEAEs (human; MAD part, 20 mg once daily): 0%
N#Cc1ccc2c(c1)[C@H]1CCCN(C(=O)c3ccc4[nH]cnc4c3)[C@H]1C2  maximum ACTH level (human; 80 mg, day 15): 17.8 pmol/L
